Measurements pooled from the literature.
Compare with care: the assays were run in different laboratories. ± marks the error that the study gave.
SLC22A2: Solute carrier family 22 member 2 (SLC22A2, Homo sapiens, UniProt O15244)
Sequence of UniProt O15244 (whole entry, looked up): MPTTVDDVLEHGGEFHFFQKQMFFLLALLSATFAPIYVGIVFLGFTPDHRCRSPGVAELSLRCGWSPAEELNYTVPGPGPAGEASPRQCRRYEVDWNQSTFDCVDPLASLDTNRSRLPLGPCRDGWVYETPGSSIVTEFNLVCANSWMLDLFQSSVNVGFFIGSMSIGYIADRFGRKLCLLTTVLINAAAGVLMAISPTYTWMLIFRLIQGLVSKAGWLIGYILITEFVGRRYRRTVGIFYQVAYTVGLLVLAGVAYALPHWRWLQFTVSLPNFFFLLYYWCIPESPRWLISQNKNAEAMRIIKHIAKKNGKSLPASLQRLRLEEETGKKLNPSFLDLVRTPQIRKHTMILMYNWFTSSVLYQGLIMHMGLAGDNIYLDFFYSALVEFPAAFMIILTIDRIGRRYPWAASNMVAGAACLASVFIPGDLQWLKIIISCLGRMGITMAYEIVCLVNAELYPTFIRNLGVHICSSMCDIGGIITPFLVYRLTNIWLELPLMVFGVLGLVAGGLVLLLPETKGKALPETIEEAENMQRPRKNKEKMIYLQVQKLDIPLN
ALB: Albumin (ALB, Homo sapiens, UniProt P02768)
NR1I2: Nuclear receptor subfamily 1 group I member 2 (NR1I2, Homo sapiens, UniProt O75469)
Sequence of UniProt O75469 (whole entry, looked up): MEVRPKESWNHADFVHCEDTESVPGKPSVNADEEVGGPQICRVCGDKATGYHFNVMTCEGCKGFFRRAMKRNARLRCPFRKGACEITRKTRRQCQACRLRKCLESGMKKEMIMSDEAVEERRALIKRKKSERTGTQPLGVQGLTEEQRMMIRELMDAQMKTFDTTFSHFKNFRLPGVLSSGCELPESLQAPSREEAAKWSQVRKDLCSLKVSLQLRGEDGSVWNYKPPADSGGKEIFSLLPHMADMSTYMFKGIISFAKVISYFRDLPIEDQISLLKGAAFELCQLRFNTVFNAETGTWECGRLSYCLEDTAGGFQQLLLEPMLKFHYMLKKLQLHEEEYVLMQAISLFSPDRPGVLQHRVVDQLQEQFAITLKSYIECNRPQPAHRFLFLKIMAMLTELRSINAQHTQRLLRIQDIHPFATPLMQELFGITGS
Sequence of UniProt P07724 (whole entry, looked up): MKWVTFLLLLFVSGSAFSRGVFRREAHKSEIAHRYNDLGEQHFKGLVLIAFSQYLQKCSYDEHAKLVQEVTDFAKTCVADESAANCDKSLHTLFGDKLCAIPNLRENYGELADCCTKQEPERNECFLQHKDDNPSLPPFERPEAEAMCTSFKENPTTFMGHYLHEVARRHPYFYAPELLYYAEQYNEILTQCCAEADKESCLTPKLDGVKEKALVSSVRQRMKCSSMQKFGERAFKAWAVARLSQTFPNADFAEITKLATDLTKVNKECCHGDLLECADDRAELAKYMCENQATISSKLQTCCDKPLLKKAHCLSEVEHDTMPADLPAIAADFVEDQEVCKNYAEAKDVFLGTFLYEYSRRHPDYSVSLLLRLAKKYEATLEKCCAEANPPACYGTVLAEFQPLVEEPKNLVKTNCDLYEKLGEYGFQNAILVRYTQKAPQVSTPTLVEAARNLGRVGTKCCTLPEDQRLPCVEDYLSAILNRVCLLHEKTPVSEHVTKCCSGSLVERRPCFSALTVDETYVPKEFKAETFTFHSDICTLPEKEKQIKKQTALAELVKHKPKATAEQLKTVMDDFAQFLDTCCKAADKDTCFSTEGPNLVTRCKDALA
Sequence of UniProt P08183 (whole entry, looked up): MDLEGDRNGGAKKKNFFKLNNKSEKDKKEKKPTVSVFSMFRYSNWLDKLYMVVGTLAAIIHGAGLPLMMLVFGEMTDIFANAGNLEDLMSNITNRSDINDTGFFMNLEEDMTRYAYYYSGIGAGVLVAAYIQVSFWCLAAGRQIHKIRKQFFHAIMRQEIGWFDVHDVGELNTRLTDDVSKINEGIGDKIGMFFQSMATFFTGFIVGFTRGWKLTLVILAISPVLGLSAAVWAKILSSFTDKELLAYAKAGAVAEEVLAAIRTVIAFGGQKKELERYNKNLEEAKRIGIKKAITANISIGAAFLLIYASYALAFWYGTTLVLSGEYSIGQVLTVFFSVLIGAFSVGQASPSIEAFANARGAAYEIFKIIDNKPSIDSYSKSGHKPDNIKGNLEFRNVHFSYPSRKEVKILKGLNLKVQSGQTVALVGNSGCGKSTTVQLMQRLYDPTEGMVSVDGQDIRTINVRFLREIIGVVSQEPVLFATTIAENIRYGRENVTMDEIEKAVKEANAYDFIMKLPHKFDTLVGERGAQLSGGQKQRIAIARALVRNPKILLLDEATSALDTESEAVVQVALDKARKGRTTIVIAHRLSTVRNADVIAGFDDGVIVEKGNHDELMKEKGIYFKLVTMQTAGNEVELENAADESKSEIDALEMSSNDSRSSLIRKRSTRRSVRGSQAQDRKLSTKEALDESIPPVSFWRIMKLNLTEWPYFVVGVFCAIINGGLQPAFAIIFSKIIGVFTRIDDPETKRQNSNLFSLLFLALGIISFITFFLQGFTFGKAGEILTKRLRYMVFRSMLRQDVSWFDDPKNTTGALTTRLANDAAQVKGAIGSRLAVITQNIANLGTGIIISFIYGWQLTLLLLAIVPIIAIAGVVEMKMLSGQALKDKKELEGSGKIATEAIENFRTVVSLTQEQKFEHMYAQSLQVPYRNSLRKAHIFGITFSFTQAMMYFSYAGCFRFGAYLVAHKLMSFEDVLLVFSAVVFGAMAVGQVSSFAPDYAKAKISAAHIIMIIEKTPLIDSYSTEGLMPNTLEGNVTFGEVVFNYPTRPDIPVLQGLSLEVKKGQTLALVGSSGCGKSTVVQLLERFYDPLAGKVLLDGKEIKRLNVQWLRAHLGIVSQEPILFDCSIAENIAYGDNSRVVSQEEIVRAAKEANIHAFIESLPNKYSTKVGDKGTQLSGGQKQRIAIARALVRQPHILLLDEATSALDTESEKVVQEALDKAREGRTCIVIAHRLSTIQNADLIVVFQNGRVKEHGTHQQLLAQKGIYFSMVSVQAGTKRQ

SMILES | target | assay | test system | conditions | how to read | quantity | value
NC(=O)c1ncn([C@@H]2O[C@H](CO)[C@@H](O)[C@H]2O)n1 | SLC22A2 | transport, inhibitor | transiently transfected cells | 100 µM, 10 (unit not given), with: metformin | – | inhibition | -8.2%
CC1(C)NC(=O)N(c2cc(Cl)c(F)c(C(F)(F)F)c2)C1=O | ALB | – | – | – | – | unbound fraction | 0.15
OC[C@H]1O[C@@H](Oc2cc3c(O)cc(O)cc3[o+]c2-c2cc(O)c(O)c(O)c2)[C@H](O)[C@@H](O)[C@@H]1O | ALB | binding, fluorescence quenching | – | pH 7, 20 °C, HSA 2 µM | – | Kd | 10.8 ± 0.14 µM
O=C(Nc1c2c(cc3c1CCC3)CCC2)NS(=O)(=O)/C=C/c1nccs1 | human CYP3A4 | – | human liver microsomes | 2 µM, pH 7.4, with: midazolam | – | inhibition | < 0%
CCN(CCO)CCCC(C)Nc1ccnc2cc(Cl)ccc12 (stereo not shown) | SLC22A2 | transport, inhibitor | transiently transfected cells | 100 µM, 10 (unit not given), with: metformin | – | inhibition | 30.3%
CC1(C)SSC[C@H](NC(=O)[C@H](Cc2ccccc2)NC(=O)[C@@H](NC(=O)[C@H](Cc2ccccc2)NC(=O)C2(NC(=O)[C@H](Cc3ccc4ccccc4c3)NC(=O)[C@H](CCCCN)NC(=O)CCCCCNC(=O)[C@@H](N)CCCCNC(=O)CCCC[C@@H]3SC[C@@H]4NC(=O)N[C@@H]43)CCNCC2)C2CCCC2)C(=O)N2C[C@H](O)C[C@H]2C(=O)N[C@@H](Cc2ccccc2)C(=O)N[C@@H](Cc2ccc(O)cc2)C(=O)N[C@@H](Cc2ccc(O)cc2)C(=O)N[C@@H](CCCCN)C(=O)N2C[C@H](O)C[C@H]2C(=O)N[C@@H]1C(=O)N[C@@H](CCCCN)C(N)=O | Chymotrypsinogen A (Bos taurus, UniProt P00766) | substrate, LC-MS | – | with: Chymotrypsinogen A 0.5 mg/mL | – | t1/2 | 3.33 h
NC(=O)c1nc(F)c[nH]c1=O | SLC22A2 | transport, inhibitor | transiently transfected cells | 100 µM, 10 (unit not given), with: metformin | – | inhibition | -10.1%
CC(C)[C@H](C(=O)O[C@H](C#N)c1cccc(Oc2ccccc2)c1)c1ccc(Cl)cc1 | human CYP2C19 | IVIVE from expressed enzymes | human, liver, in vivo scaled | age-specific | – | enzyme contribution to CLint | 3.02%
Clc1ccc(-c2ccccc2Cl)cc1 | NR1I2 | agonist, item: CYP3A4 | differentiated HepaRG | concentration not given, 24 h | baseline: maximum rifampicin induction | mRNA level | < 20%
CN(C)C(=O)COC(=O)Cc1ccc(OC(=O)c2ccc(NC(=N)N)cc2)cc1 | SLC22A2 | transport, inhibitor | transiently transfected cells | 100 µM, 10 (unit not given), with: metformin | – | inhibition | 34%
CCOc1ccc(-c2nc3ccc(-c4nc5ccc(N6CCN(C)CC6)cc5[nH]4)cc3[nH]2)cc1 | Albumin (Mus musculus, UniProt P07724) | binding, second site, fluorescence titration | PBS | – | – | Kd | > 100 µM
COc1ccc2cc1Oc1ccc(cc1)C[C@H]1c3cc(c(OC)cc3CCN1C)Oc1c(OC)c(OC)cc3c1[C@H](C2)N(C)CC3 | SLC22A2 | transport, inhibitor | – | 10 µM, with: Metformin | – | inhibition | -5.9%
CO/N=C1\C[C@]2(C[C@@H]3C[C@@H](C/C=C(\C)C[C@@H](C)/C=C/C=C4\CO[C@@H]5[C@H](O)C(C)=C[C@@H](C(=O)O3)[C@]45O)O2)O[C@H](/C(C)=C/C(C)C)[C@H]1C | NR1I2 | – | – | concentration not given | – | activity | inactive
CC[C@H](C)[C@H](NC(=O)[C@H](CCCCN)NC(=O)[C@H](CCC(=O)O)NC(=O)[C@H](CCCCN)NC(=O)[C@H](CO)NC(=O)[C@H](CCCCN)NC(=O)[C@H](CCCNC(=N)N)NC(=O)[C@H](Cc1ccccc1)NC(=O)[C@H](Cc1ccccc1)NC(=O)[C@H](CC(=O)O)NC(=O)CNC(=O)[C@H](CC(C)C)NC(=O)[C@@H](N)CC(C)C)C(=O)NCC(=O)N[C@@H](CCCCN)C(=O)N[C@@H](CCC(=O)O)C(=O)N[C@@H](Cc1ccccc1)C(=O)N[C@@H](CCCCN)C(=O)N[C@@H](CCCNC(=N)N)C(=O)N[C@H](C(=O)N[C@H](C(=O)N[C@@H](CCC(N)=O)C(=O)N[C@@H](CCCNC(=N)N)C(=O)N[C@H](C(=O)N[C@@H](CCCCN)C(=O)N[C@@H](CC(=O)O)C(=O)N[C@@H](Cc1ccccc1)C(=O)N[C@@H](CC(C)C)C(=O)N[C@@H](CCCNC(=N)N)C(=O)N[C@@H](CC(N)=O)C(=O)N[C@@H](CC(C)C)C(=O)N[C@H](C(=O)N1CCC[C@H]1C(=O)N[C@@H](CCCNC(=N)N)C(=O)N[C@H](C(=O)N[C@@H](CCC(=O)O)C(=O)N[C@@H](CO)C(=O)O)[C@@H](C)O)C(C)C)[C@@H](C)CC)C(C)C)[C@@H](C)CC | trypsin | LC-MS | – | 40 µM, 60 min, pH 7.5, 37 °C | baseline: 0 h | remaining intact peptide | 4.29%
CC(C)=CC1C(C(=O)OC(C#N)c2cccc(Oc3ccccc3)c2)C1(C)C (stereo not shown) | human CYP2C19 | IVIVE from expressed enzymes | human, liver, in vivo scaled | age-specific | – | enzyme contribution to CLint | 0.89%
CC[C@H]1OC(=O)[C@H](C)[C@@H](O[C@H]2C[C@@](C)(OC)[C@@H](O)[C@H](C)O2)[C@H](C)[C@@H](O[C@@H]2O[C@H](C)C[C@H](N(C)C)[C@H]2O)[C@](C)(O)C[C@@H](C)CN(C)[C@H](C)[C@@H](O)[C@]1(C)O | SLC22A2 | transport, inhibitor | – | 50 µM, 10 (unit not given), with: metformin | – | inhibition | -25.5%
CC[C@H](C)[C@H](NC(=O)[C@H](CC(C)C)NC(=O)[C@H](CCCNC(=N)N)NC(=O)[C@@H](N)CCCNC(=N)N)C(=O)N[C@@H](CCCNC(=N)N)C(=O)N[C@@H](CCCCN)C(=O)N[C@@H](CC(C)C)C(=O)N[C@@H](CCCCN)C(=O)NCC(=O)N[C@@H](CC(C)C)C(=O)N[C@@H](CCCCN)C(=O)N[C@@H](CCCCN)C(=O)N[C@@H](Cc1ccc(O)cc1)C(=O)N[C@@H](CC(C)C)C(=O)N[C@@H](Cc1ccc(O)cc1)C(=O)N[C@@H](Cc1ccccc1)C(=O)N[C@@H](CCCCN)C(=O)N[C@@H](CC(C)C)C(=O)N[C@@H](CCC(N)=O)C(=O)N[C@@H](CC(C)C)C(=O)N[C@@H](CC(C)C)C(=O)N[C@@H](CCCCN)C(=O)N[C@@H](CCCCN)C(N)=O | trypsin | substrate, HPLC | – | 150 µM, pH 7.4, 37 °C, with: trypsin 0.06 µg/mL | – | time to near-complete degradation | 18 to 20 h
CCOC(=O)c1c(CSc2ccccc2)n(C)c2cc(Br)c(O)c(CN(C)C)c12 | SLC22A2 | transport, inhibitor | transiently transfected cells | 100 µM, 10 (unit not given), with: metformin | – | inhibition | 86.2%
CC(C)CC(=O)OC[C@H]1O[C@@](C#N)(c2ccc3c(N)ncnn23)[C@H](O)[C@@H]1O | ATP-dependent translocase ABCB1 (ABCB1, Homo sapiens, UniProt P08183) | – | Caco-2 | concentration not given, 2 h | – | efflux rate | < 10%
C[C@@H](c1ccc2nccn2c1)n1nnc2ncc(-c3cnn(C)c3)nc21 | CYP3A4/5 (human) | enzyme activity, inhibitor | pooled human liver microsomes | pH 7.4, with: midazolam substrate | – | IC50 | 50 µM
COc1cc2nc(N3CCN(C(=O)c4ccco4)CC3)nc(N)c2cc1OC | SLC22A2 | transport, inhibitor | – | 100 µM | – | inhibition | 37.7%
CO[C@H]1C[C@H](O[C@H]2[C@H](C)O[C@@H](O[C@@H]3/C(C)=C/C[C@@H]4C[C@@H](C[C@]5(C=C[C@H](C)[C@@H](C6CCCCC6)O5)O4)OC(=O)[C@@H]4C=C(C)[C@@H](O)[C@H]5OC/C(=C\C=C\[C@@H]3C)[C@]54O)C[C@@H]2OC)O[C@@H](C)[C@@H]1O | NR1I2 | – | – | concentration not given | – | activity | inactive
COc1cc(-c2[o+]c3cc(O)cc(O)c3cc2O[C@@H]2O[C@H](CO)[C@@H](O)[C@H](O)[C@H]2O)cc(OC)c1O | ALB | binding, visible absorption spectroscopy | – | pH 7, with: HSA 200 µM | – | Kd | 50.8 ± 1.96 µM
Clc1ccc(Cl)c(-c2ccccc2Cl)c1 | NR1I2 | agonist, reporter gene | LS180 cells, transiently transfected | concentration not given | baseline: rifampicin response | PXR activation | > 50%
CC1(C)C(C=C(Cl)Cl)C1C(=O)OC(C#N)c1ccc(F)c(Oc2ccccc2)c1 (stereo not shown) | human CYP3A4 | IVIVE from expressed enzymes | human, liver, in vivo scaled | 0.1 µM, age-specific | – | enzyme contribution to CLint | 1.12%
N#Cc1ccc([C@H]2CCc3cncn32)c(F)c1 | CYP3A4/5 (human) | inhibitor, item: midazolam 1'-hydroxylation | pooled human liver microsomes | pH 7.4, with: midazolam 1 µM | – | IC50 | 6.5 µM
CC1(C)[C@H](C=C(Cl)Cl)[C@H]1C(=O)OCc1cccc(Oc2ccccc2)c1 | human CYP2C19 | IVIVE from expressed enzymes | human, liver, in vivo scaled | 0.1 µM, age-specific | – | enzyme contribution to CLint | 0.32%
CC(C)(C)C(=O)C1C(=O)c2ccccc2C1=O | NR1I2 | – | – | concentration not given | – | activity | inactive

Excerpt of the above:
SMILES | target | assay | test system | conditions | how to read | quantity | value
NC(=O)c1nc(F)c[nH]c1=O | SLC22A2 | transport, inhibitor | transiently transfected cells | 100 µM, 10 (unit not given), with: metformin | – | inhibition | -10.1%
CC(C)[C@H](C(=O)O[C@H](C#N)c1cccc(Oc2ccccc2)c1)c1ccc(Cl)cc1 | human CYP2C19 | IVIVE from expressed enzymes | human, liver, in vivo scaled | age-specific | – | enzyme contribution to CLint | 3.02%
Clc1ccc(-c2ccccc2Cl)cc1 | NR1I2 | agonist, item: CYP3A4 | differentiated HepaRG | concentration not given, 24 h | baseline: maximum rifampicin induction | mRNA level | < 20%
CN(C)C(=O)COC(=O)Cc1ccc(OC(=O)c2ccc(NC(=N)N)cc2)cc1 | SLC22A2 | transport, inhibitor | transiently transfected cells | 100 µM, 10 (unit not given), with: metformin | – | inhibition | 34%
